Experimental data pooled from the literature.
Every numbered part comes from another study and shows a few of its results, in no order. Changes are numbered by the printed parent chain.

Block 1
Target: UBE2Q2 UBC core domain (UniProt Q8WVN8)
Chain of UniProt Q8WVN8 (whole entry, looked up): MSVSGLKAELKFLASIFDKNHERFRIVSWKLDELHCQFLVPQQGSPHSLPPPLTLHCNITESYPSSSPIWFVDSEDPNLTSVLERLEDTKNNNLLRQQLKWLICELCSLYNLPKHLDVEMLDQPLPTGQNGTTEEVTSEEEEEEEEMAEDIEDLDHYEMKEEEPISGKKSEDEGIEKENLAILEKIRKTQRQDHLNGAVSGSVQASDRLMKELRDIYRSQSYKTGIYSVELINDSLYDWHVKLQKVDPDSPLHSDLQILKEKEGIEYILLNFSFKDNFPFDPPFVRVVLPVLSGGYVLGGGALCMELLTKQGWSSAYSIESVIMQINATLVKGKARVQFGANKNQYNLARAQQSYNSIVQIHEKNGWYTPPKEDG
Technique: yeast two-hybrid
Medium: yeast
Notes: mostly zero background
Reference: not given
Direction: higher = stronger interaction
B1: RNF152 RING domain (UniProt Q8N8N0); chain ETLSQDSLLECQICFNYYSPRRRPKLLDCKHTCCSVCLQQMRTSQKDVRCPWCRGVTKLPPGFS
B2: TRIM60 RING domain (UniProt Q495X7); chain ALVNLQEESSCPICLEYLKDPVTINCGHNFCRSCLSVSWKDLDDTFPCPVCRFCFPYKSFRR
B3: ANAPC11 RING domain (UniProt Q9NYG5); chain GICRMAFNGCCPDCKVPGDDCPLVWGQCSHCFHMHCILKWLHAQQVQQHCPMCRQEWKFKE
B4: DEF8 RING domain (UniProt Q6ZN54); chain AGRLGCSLTEIHTLFAKHIKLDCERCQAKGFVCELCREGDVLFPFDSHTSVCADCSAVFHRDCYYDNSTTCPKCARLSLRK
B5: RNF122 RING domain (UniProt Q9H9V4); chain AKKLQLYGQTCAVCLEDFKGKDELGVLPCQHAFHRKCLVKWLEVRCVCPMCNKPIASPSEAT
B6: TRIM22 RING domain (UniProt Q8IYM9); chain VKVDIEKEVTCPICLELLTEPLSLDCGHSFCQACITAKIKESVIISRGESSCPVCQTRFQPGNLRP
B7: RNF166 RING domain (UniProt Q96A37); chain GDSGLEAQYTCPICLEVYHRPVAIGSCGHTFCGECLQPCLQVPSPLCPLCRLPFDPKKVDK
B8: TRIM31 RING domain (UniProt Q9BZY9); chain FVNKLQEEVICPICLDILQKPVTIDCGHNFCLKCITQIGETSCGFFKCPLCKTSVRKNAIRF
B9: TRIM54 RING domain (UniProt Q9BYV2); chain SMDNLEKQLICPICLEMFSKPVVILPCQHNLCRKCANDVFQASNPLWQSRGSTTVSSGGRFRCPSCRHEVVLDRHGV
B10: TRIM26 RING domain (UniProt Q12899); chain PLRSLEEEVTCSICLDYLRDPVTIDCGHVFCRSCTTDVRPISGSRPVCPLCKKPFKKENIRP
Sequence | lacZ reporter activity
MNDVLENELQCIICSEYFIEAVTLNCAHSFCSYCINEWMKRKIECPICRKDIKSKTYSL (RNF8 RING domain (UniProt O76064)) | 0
B1 (RNF152 RING domain) | 0
B2 (TRIM60 RING domain) | 0
B3 (ANAPC11 RING domain) | 0
B4 (DEF8 RING domain) | 0
B5 (RNF122 RING domain) | 0
YCEMGSTFQLCKICAENDKDVKIEPCGHLMCTSCLTAWQESDGQGCPFCRCEIKGTEPII (CBLB RING domain (UniProt Q13191)) | 0
LDAASGHPLVCPLCHGQYERPCLLDCFHDFCTGCLRGRATDGRLSCPLCQHQTLVKGPSG (Rnf207 RING domain (UniProt Q3V3A7)) | 0
B6 (TRIM22 RING domain) | 0
FVKTVEDKYKCEKCHLVLCSPKQTECGHRFCESCMAALLSSSSPKCTACQESIVKDKVF (TRAF3 RING domain (UniProt Q13114)) | 0
B7 (RNF166 RING domain) | 0
B8 (TRIM31 RING domain) | 0
B9 (TRIM54 RING domain) | 0
QVQSRTKIEECVVCSDKKAAVLFQPCGHMCACENCANLMKKCVQCRAVVERRVPFI (MIB1 RING domain (UniProt Q86YT6)) | 0
B10 (TRIM26 RING domain) | 0
YPEEVDDDLICHICLQALLDPLDTPCGHTYCTLCLTNFLVEKDFCPMDRKPLVLQHCKK (LNX1 RING domain (UniProt Q8TBB1)) | 0

Block 2
Target: RNA binding protein fox-1 homolog 2, RRM domain, GST-SBP tag (RBFOX2, Homo sapiens, UniProt O43251-10, residues 100-194)
Technique: RNA Bind-n-Seq
Molecule type: RNA
Medium: in vitro
Tested at: 365 nM
Notes: natural RNA segment, single round, ends assumed
Reference: no-protein control
Direction: higher = stronger binding
Residues (chain): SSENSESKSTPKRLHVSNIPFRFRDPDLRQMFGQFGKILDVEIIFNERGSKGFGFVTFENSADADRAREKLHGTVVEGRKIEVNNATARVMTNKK
Strand | RBNS enrichment (R)
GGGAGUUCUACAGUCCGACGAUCGGCAUAUAUAAACAUGUGUAUGUGCAAUAUAUCGAUAUAGAAUUCUGCCAAAAAUCAAGGUUUAAAAAGCUGAGGCUUGUAUUUGAUCAUGCUUUUCACCUAAAUAGCAAUGGAAUUCUCGGGUGCCAA | 1.22
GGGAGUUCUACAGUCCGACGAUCCAAGAAUUUCCCAGUCCCAGGCAGGGCAGGGGAAACUAAGGGCAAGCAGGAUACAGGGCGAGGGAUGUGGCAGGUGAGGGGGCUCCCGCCUGUGCCCCUUCUCCUCACCAUGGAAUUCUCGGGUGCCAA | 1.49
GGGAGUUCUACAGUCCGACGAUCGCUACCCACCCACUGAUGCCGCCUGCUAUUCCUGCUGUUGGAGGCCACUGGACCACUGGGGGCACAAUGGAGACUUCUCUUCAGAAUGGUUUUUGUUCUGUCUACCCUCUUGGAAUUCUCGGGUGCCAA | 0.494
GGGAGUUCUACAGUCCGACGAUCUUAUAAGAUUUCCUCUGACUUGUUUCUUUGUGGUUCCCAAAAAAAAAAAAAAAACCUCAAAAAUUAAGUGCUAUUUCAUUCCUUCUUUCUCUAUCAAAAGAAAGGGAAGGUGGAAUUCUCGGGUGCCAA | 0.551
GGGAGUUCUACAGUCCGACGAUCGGCGGGCUCAGGAGAGUCCAUAGAUCAGCCGUAACUGGAACGUAGAAUCUACGUCUGCCUCUGAAUGGACUUCCCACCUCCUCUCUCUUGCUCUGAUGCUUGCCUCUGGGUGGAAUUCUCGGGUGCCAA | 0.665
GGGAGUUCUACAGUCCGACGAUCUCCACAGCAAAUGAGAUGUAUGCCCAAAGACGGUAGAAUUAAAGAAGAGUAAAAUGGCUGUUGAAGCACUUUCUGUCCUGGUAUUUUGUUUUUGCUUUUGCCACACAGUAUGGAAUUCUCGGGUGCCAA | 2.58
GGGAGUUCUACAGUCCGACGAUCCCCCCCGGGGGGGGCAUUCGAAUCACCUCAGUUGCUGCUGUAAUAAAGUCUACUUUUUGCUAAAGCAUCUUGUGUUGUGCUUGCGGCUCAGUGGGUGGCACCGCCGCUUCUGGAAUUCUCGGGUGCCAA | 0.259
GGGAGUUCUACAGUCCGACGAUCAAGUAUUAUUUUUACUGUUAAGAUUUUUUUUAAAUGUGAAAUGAAAUGUAAUGUUUUUACAGCAAUGAUAUGAAAUAUAUUUUAUAAGGAAUAAAAUGGUACAUUGUCUGUGGAAUUCUCGGGUGCCAA | 0.666
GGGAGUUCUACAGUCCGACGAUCUGUCCAACCAGCUACCCACCUCAACUCCCCUGUAGUUUAGGACACAAAACAGCUACCAGCGGUACAGAGCGGUGAUCAAAGCCGAGUACUUACAACUCUGGUAAGCCUAGUGGAAUUCUCGGGUGCCAA | 0.396
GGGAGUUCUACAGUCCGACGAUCUGCAUUCGUAGAACUUCUAAGGGUCCCAGGAUCACUUUUAAGGGAUUUUUUUUUUAUAGUUUAAAUAAAGUCAGCUGAAUCUACAUGUCUCUUGUUUUAUUUCUCUCUAAUGGAAUUCUCGGGUGCCAA | 0.786
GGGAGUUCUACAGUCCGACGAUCUUUUUCAACCCCCCUUUUUCAUUAAUCUGUUCUUAAAACUUCUUUUUACUGGCUUUCAUACUUAGCAUUCCAGUGAAAUGUUCUUAGACUCACCAGUGGACAAAUAAUAAUGGAAUUCUCGGGUGCCAA | 0.379
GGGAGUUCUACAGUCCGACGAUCGUCUCCCCGGCCUACUCAUCCUGAGUCACCCUAUCACCAUGGGAGGUGGAGCCUCAAACUAAAACCUUCUUUUAUGGAAAGAAGGCUGUGGCCAAAAGCCCCGUAUCAAAUGGAAUUCUCGGGUGCCAA | 0.268

Block 3
Target: CCNA2, cyclin fold, Cln2 fusion (human)
Technique: yeast growth competition, sequencing
Medium: yeast
Notes: strong parent motif
Reference: not given
Direction: higher = stronger binding
Starting sequence: E2F1 docking peptide (human); PPVKRRLDFETDH; partner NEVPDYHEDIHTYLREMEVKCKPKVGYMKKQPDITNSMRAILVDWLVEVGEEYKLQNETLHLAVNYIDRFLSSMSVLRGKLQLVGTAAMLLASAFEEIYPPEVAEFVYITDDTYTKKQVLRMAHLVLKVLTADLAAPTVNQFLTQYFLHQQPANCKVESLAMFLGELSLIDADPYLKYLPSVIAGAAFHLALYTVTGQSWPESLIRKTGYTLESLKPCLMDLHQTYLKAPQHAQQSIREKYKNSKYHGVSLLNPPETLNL
Variant | normalised enrichment score
PPVLRRLDFETDH [K4L] | 3.72
PPVKRRLDPETDH [F9P] | 0.107
PPVKRRFDFETDH [L7F] | 0.58
PPGKRRLDFETDH [V3G] | 4.93
PPVDRRLDFETDH [K4D] | 2.58
PPVKRRLDFETCH [D12C] | 5.99
PPDKRRLDFETDH [V3D] | 0.112
PPVKRRWDFETDH [L7W] | 0.0714
PPVKRRCDFETDH [L7C] | 1.2
PPVKRRLDRETDH [F9R] | 0.787
PPVKRRLDFEFDH [T11F] | 5.98
PPVKRRLDFETQH [D12Q] | 6.08
PPVKRRLEFETDH [D8E] | 5.71
PPVKRRLDFEGDH [T11G] | 5.98
PPVKRDLDFETDH [R6D] | 0.32
PPVKRRLDFDTDH [E10D] | 5.88
PPVKRRLDFPTDH [E10P] | 5.9
PPVKRRHDFETDH [L7H] | 0.169
PPVKRRLDHETDH [F9H] | 0.242
PPVKRRLDFETGH [D12G] | 6.4
PPLKRRLDFETDH [V3L] | 4.33
PPVKRRLDSETDH [F9S] | 0.376
PPVKRRLDQETDH [F9Q] | 0.481
PPVWRRLDFETDH [K4W] | 5.66

Block 4
Target: ABI1, truncated, D143A, DHFR fusion (Arabidopsis thaliana)
Technique: DHFR PCA, deep sequencing
Medium: yeast
Notes: methotrexate growth selection, single substitutions
With: (+)-ABA 4.8 µM
Reference: wild-type fitted maximum
Direction: higher = stronger binding
Starting sequence: PYL1, truncated, DHFR fusion (Arabidopsis thaliana); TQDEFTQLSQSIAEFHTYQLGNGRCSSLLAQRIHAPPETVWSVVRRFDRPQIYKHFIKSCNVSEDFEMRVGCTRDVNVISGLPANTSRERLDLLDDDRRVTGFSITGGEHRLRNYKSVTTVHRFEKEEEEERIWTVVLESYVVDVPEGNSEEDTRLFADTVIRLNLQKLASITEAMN
Variant | relative binding score [%]
T160A | 16.1
F157M | 18.2
T154W | 5.38
F103D | -5.57
S11W | 69.4
T73E | 74.1
S59E | 75.2
L156R | 19.9
E139K | 7.53
Q2D | 79.9
F15R | 8.48
V145S | -2.4
V62G | 3.19
T135R | -6.5
S171G | 59.8
S150N | 68.1
D3T | 61.5

Excerpt of the above (block 4):
Variant | relative binding score [%]
D3T | 61.5
Q2D | 79.9
S150N | 68.1
T135R | -6.5
T154W | 5.38
E139K | 7.53
L156R | 19.9
T73E | 74.1
V145S | -2.4
S171G | 59.8
T160A | 16.1
